Assay results gathered from unrelated publications.
Parts stem from different laboratories: compare values within a part only.
Chain of UniProt Q04759 (whole entry, looked up): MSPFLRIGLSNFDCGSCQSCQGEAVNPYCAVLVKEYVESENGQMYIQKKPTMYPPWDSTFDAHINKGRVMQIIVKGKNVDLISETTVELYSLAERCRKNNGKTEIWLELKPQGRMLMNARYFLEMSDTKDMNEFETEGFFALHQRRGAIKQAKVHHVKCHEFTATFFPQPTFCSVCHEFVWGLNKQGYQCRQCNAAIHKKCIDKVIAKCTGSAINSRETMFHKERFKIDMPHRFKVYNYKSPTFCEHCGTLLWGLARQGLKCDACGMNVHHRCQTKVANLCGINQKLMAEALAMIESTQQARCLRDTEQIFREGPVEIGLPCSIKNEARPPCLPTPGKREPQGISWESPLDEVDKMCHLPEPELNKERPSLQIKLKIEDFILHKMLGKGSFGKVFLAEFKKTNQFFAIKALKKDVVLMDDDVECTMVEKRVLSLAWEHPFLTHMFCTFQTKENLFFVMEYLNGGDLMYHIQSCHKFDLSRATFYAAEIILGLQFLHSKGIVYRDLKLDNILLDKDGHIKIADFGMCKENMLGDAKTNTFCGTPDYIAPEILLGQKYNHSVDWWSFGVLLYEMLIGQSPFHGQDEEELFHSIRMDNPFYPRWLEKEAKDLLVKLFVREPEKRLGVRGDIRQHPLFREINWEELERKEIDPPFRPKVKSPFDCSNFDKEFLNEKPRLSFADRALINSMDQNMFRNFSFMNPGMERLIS
Chain of UniProt Q9UL54 (whole entry, looked up): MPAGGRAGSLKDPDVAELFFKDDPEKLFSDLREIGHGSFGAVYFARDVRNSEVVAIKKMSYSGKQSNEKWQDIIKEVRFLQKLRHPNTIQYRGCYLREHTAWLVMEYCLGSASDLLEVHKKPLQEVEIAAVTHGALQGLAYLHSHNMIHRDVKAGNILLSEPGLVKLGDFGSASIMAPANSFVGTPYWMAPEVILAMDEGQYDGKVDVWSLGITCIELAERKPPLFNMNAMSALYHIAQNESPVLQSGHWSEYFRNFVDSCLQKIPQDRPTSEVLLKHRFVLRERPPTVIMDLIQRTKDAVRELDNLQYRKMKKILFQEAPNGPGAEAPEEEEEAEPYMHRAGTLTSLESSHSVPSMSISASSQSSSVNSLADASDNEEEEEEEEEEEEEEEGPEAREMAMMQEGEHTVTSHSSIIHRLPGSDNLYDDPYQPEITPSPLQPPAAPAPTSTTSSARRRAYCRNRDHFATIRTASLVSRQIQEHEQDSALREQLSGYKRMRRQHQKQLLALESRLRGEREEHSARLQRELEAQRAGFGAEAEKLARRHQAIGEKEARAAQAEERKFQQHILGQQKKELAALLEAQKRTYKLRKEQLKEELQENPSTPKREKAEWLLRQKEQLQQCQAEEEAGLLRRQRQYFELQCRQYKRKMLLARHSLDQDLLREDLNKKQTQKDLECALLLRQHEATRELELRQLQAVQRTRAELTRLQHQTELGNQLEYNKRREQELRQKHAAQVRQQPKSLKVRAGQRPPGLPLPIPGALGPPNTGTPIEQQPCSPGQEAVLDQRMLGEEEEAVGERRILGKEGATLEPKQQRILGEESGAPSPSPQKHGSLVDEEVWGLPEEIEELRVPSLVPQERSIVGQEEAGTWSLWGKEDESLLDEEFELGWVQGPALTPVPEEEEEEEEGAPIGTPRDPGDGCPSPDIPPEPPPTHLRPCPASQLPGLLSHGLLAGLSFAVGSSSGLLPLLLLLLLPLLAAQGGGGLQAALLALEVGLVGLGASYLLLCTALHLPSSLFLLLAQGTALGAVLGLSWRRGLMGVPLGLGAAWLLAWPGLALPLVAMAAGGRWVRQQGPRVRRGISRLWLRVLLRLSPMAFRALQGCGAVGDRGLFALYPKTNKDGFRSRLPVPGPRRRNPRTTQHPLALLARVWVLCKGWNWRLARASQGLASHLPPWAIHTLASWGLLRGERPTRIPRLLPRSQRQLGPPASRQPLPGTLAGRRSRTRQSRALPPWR
Chain of UniProt P78356 (whole entry, looked up): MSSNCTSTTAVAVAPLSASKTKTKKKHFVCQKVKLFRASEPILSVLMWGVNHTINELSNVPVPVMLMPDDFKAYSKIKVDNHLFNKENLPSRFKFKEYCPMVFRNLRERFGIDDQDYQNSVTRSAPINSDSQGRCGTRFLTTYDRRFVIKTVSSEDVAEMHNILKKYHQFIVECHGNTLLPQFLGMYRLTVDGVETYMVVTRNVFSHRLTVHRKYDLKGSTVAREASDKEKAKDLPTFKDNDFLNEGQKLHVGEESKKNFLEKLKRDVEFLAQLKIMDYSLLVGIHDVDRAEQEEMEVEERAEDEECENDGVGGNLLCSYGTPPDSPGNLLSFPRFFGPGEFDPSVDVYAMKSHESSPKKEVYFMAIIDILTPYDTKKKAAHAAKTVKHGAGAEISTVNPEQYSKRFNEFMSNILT
Chain of UniProt P29320 (whole entry, looked up): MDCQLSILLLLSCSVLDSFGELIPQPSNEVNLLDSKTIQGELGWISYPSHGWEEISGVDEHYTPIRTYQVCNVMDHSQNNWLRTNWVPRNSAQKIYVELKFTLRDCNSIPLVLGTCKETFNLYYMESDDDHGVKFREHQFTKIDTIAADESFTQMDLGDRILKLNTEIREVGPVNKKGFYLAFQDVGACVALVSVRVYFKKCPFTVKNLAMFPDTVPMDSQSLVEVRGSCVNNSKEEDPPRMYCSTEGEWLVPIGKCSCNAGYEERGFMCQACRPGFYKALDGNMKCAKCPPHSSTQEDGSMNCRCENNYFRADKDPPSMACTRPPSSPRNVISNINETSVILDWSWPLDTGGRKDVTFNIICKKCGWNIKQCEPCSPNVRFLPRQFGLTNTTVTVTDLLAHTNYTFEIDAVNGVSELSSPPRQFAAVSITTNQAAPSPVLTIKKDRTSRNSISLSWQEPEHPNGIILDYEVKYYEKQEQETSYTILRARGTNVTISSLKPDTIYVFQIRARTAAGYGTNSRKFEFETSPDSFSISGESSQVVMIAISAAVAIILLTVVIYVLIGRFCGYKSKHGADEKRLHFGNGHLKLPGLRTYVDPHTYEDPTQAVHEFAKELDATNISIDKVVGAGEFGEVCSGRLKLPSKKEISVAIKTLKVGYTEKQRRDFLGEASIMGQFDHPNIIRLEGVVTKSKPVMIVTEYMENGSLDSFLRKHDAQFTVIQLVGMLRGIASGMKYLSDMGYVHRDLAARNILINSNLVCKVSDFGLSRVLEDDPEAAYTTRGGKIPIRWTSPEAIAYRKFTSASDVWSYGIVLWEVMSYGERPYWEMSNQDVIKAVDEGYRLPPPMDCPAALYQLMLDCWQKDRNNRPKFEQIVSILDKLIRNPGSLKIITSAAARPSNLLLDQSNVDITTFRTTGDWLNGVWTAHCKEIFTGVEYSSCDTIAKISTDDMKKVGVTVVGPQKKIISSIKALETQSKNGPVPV
Chain of UniProt Q9UHD2 (whole entry, looked up): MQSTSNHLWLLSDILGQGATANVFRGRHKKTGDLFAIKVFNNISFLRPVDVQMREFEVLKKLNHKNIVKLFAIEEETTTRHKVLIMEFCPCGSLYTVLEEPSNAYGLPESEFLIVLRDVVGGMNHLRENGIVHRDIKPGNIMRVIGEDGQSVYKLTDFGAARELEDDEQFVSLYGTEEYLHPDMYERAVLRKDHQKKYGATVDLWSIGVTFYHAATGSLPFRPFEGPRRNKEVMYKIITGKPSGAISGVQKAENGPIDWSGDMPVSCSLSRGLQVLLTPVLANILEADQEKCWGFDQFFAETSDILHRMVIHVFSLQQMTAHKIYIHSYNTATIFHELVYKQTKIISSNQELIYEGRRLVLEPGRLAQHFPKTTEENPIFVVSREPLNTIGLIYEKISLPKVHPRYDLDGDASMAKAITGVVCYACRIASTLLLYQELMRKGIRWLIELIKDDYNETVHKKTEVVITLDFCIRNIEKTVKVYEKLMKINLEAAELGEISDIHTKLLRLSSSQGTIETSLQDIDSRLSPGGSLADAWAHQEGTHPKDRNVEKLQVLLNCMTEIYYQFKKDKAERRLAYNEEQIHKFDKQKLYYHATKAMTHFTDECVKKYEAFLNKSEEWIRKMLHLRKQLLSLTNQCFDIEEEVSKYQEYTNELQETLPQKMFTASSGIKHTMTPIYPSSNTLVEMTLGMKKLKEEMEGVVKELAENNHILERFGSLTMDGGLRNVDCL
Chain of UniProt O14733 (whole entry, looked up): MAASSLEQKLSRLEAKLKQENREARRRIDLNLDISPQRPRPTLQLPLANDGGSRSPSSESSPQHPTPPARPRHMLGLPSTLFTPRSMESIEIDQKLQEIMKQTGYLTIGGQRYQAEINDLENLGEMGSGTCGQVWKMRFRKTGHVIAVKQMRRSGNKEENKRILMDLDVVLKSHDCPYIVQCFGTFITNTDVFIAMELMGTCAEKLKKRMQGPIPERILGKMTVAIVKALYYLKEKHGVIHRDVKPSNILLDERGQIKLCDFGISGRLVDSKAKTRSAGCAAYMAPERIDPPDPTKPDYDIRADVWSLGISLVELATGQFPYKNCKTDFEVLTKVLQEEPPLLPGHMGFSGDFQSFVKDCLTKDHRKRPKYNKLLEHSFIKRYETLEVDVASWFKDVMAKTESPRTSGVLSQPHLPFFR

Set 1
Structure (SMILES): C=CC(=O)N1CCC[C@@H](n2nc(-c3ccc(Oc4ccccc4)cc3)c3c(N)ncnc32)C1
Mode: inhibitor
Tested at: 1 µM
| target | test | inhibition |
| --- | --- | --- |
| G protein-coupled receptor kinase 3 (GRK3, Homo sapiens, UniProt P35626) | enzyme activity | 8% |
| Macrophage colony-stimulating factor 1 receptor (CSF1R, Homo sapiens, UniProt P07333) | – | 14% |
| Ribosomal protein S6 kinase alpha-1, kinase domain 1 (RPS6KA1, Homo sapiens, UniProt Q15418) | – | 29% |
| Serine/threonine-protein kinase TBK1 (TBK1, Homo sapiens, UniProt Q9UHD2) | enzyme activity | 9% |
| Serine/threonine-protein kinase DCLK2 (DCLK2, Homo sapiens, UniProt Q8N568) | enzyme activity | 3% |
| Tyrosine-protein kinase ABL1, non-phosphorylated (ABL1, Homo sapiens, UniProt P00519, F317L) | – | 87% |
| Serine/threonine-protein kinase MRCK beta (CDC42BPB, Homo sapiens, UniProt Q9Y5S2) | enzyme activity | 1% |
| Ephrin type-A receptor 3 (EPHA3, Homo sapiens, UniProt P29320) | enzyme activity | 11% |
| Serine/threonine-protein kinase 32B (STK32B, Homo sapiens, UniProt Q9NY57) | – | 21% |
| Serine/threonine-protein kinase TAO2 (TAOK2, Homo sapiens, UniProt Q9UL54) | enzyme activity | 30% |
| Phosphatidylinositol 4,5-bisphosphate 3-kinase catalytic subunit alpha isoform (PIK3CA, Homo sapiens, UniProt P42336, M1043I) | enzyme activity | 18% |
| Ribosomal protein S6 kinase alpha-5, N-terminal kinase domain (RPS6KA5, Homo sapiens, UniProt O75582) | – | 4% |
| Phosphatidylinositol 5-phosphate 4-kinase type-2 beta (PIP4K2B, Homo sapiens, UniProt P78356) | enzyme activity | 50% |
| Mast/stem cell growth factor receptor Kit (KIT, Homo sapiens, UniProt P10721, V559D/V654A) | – | 9% |
| Myosin-IIIb (MYO3B, Homo sapiens, UniProt Q8WXR4) | enzyme activity | 28% |
| Dual specificity mitogen-activated protein kinase kinase 7 (MAP2K7, Homo sapiens, UniProt O14733) | enzyme activity | 98% |
| Protein kinase C theta type (PRKCQ, Homo sapiens, UniProt Q04759) | – | 33% |
| Macrophage-stimulating protein receptor (MST1R, Homo sapiens, UniProt Q04912) | enzyme activity | 8% |

Set 2
Host: mouse
Matrix: microsomes or S9
Tested at: 2 µM
Time: 0.5 h
| SMILES | remaining compound [%] |
| --- | --- |
| CC(C)c1nc2c(c(OC3CCCN(S(=O)(=O)c4cccs4)C3)n1)CCOCC2 (stereo not drawn) | 0.0309 |
| COc1ccc(-c2cc3cc(C)cc(C)c3o2)cc1OC | 80.4 |
| Cc1c(C)n2c3c(=O)[nH]c(=O)n(C)c3nc2n1Cc1ccco1 | 19.7 |
| Cc1cccc(C2=C(N)OC(c3ccc(Cl)cc3)C2=O)n1 (stereo not drawn) | 2.13 |
| COc1cc(CNCCN(C)C)c(Cl)cc1OCc1ccccc1 | 40 |
| Fc1ccc(-c2ccc3ccnc(N4CCOCC4)c3c2)cc1Cl | 14.3 |
| CC1CC(=O)N(c2cccc(Cl)c2)N=C1c1ccc(O)cc1 (stereo not drawn) | 6.73 |
| O=C(c1ccoc1)N1CC(c2nnc(-c3ccncc3)o2)C2(CCOCC2)C1 (stereo not drawn) | 54.2 |
| CC(C)COC(C)C(=O)NCCNC(=O)C(C)C (stereo not drawn) | 37.9 |
| Cn1nc(Br)nc1N1CCC(O)CC1 | 81.2 |
| CC1(C)C=C(N(Cc2ncc[nH]2)c2ccc(Cl)c(Cl)c2)c2ccnc(Br)c2O1 | 2.78 |
| CCCc1cc(=O)n2ncc(-c3ccc(Cl)cc3)c2[nH]1 | > 99 |
| c1ccc(/C(Cc2ccn[nH]2)=N\N=C(/Cc2ccn[nH]2)c2ccccc2)cc1 | 5.1 |
| Cc1nc2sc(C(=O)N(C)c3ccccc3)c(N)c2c(C)c1C | 0.692 |
| COc1ccc(Cl)cc1NC(=O)c1[nH]c(C)c(C(C)=O)c1C | 53.3 |
| Cc1cc(C)nc(NC(N)=Nc2ccc(CC(=O)OC(C)C)cc2)n1 | 84 |
| Cn1cc(-c2cnc3c(N)nn(Cc4cccc(C(F)(F)F)c4)c3c2)cn1 | 59.1 |
| C/C=C/Cn1c(C(=O)c2cc(C)cc(C)c2)c(CC)c(NCCO)nc1=O | 19.6 |
| Nc1c(C(=O)c2ccc[nH]2)cnn1-c1ccc(F)cc1 | 47.8 |
| CCOc1cc(/C=N/n2cnnc2)ccc1OCCOCCOc1ccc(C)cc1 | 40.1 |
| CC1CCc2c(sc3ncnc(NC(c4nnc5n4CCC5)C(C)C)c23)C1 (stereo not drawn) | 3.95 |
| CCOC(=O)Nc1ccc(Br)c2ccc(OCc3ccccc3)c(CCCO)c12 | 76.6 |
| COCCCNC(=O)NCCc1c(C)nn(C)c1C | 59 |

Set 3
Target: Muscarinic acetylcholine receptor M4 (CHRM4, Homo sapiens, UniProt P08173)
Chain of UniProt P08173 (whole entry, looked up): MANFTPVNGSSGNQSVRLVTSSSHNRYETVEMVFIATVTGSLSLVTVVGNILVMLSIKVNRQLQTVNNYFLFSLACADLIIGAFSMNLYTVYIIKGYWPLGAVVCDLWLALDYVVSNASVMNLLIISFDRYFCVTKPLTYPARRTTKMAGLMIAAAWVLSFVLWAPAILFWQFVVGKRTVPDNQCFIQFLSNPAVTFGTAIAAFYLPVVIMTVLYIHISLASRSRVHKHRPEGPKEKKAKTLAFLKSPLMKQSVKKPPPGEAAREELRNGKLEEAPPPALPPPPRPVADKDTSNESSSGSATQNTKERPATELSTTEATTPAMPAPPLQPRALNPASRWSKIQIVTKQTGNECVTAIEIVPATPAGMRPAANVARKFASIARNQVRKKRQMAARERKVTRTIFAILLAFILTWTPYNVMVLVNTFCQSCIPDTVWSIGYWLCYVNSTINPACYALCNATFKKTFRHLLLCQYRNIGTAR
Read-out: ligand displacement
Tested at: 10 µM
| SMILES | inhibition [%] |
| --- | --- |
| Cn1cc(Cl)c2c(Oc3c(F)cc(Nc4cc(Cl)nc(N)n4)cc3F)ccnc21 | -3.76 |
| C[C@@H](c1cccc(C#N)c1)n1cc(Cl)cc(C(N)=O)c1=N | -6.48 |
| CN(C)C(=O)c1sc2nc(N3CCC(S(C)(=O)=O)CC3)cc(C(F)(F)F)c2c1N | 3.63 |
| CCC(=NO)C(C)=Cc1ccc(F)c(C)c1 | 15.4 |
| CN1CCN(C(=O)C(C)(C)c2ccc(C(=O)Nc3cn4cc(-c5cc(C(C)(C)C)cc(C(C)(C)C)c5)ccc4n3)cc2)CC1 | 0.99 |
| CCC(F)(F)c1cc(N2CCC(S(C)(=O)=O)CC2)nc2sc(C(N)=O)c(N)c12 | 13.3 |
| Cc1ncc(-c2cc(Cl)ccc2F)cc1-n1c(=O)n(CC(N)=O)c2ccccc21 | 3.09 |
| CCc1ccccc1C(=O)Nc1n[nH]c2c(C)c(F)c(C3C(C#N)=C(C)N(C)C(C)=C3C#N)cc12 | 8.27 |
| N#CC1(c2ccccn2)CCN(Cc2cc(C(=O)N3CCCC3)c(=O)n3ccccc23)CC1 | -8.87 |
| NS(=O)(=O)c1cc(NC(=O)Cc2ccccc2)ccc1Oc1cccc(Cl)c1 | 10.2 |
| O=S(=O)(NC1CCC(c2cc(F)ccc2F)(S(=O)(=O)c2ccc(Cl)cc2)CC1)C(F)(F)F (stereo not drawn) | 18.8 |
| CC[C@H](CC(=O)O)n1c(=O)c2ncccc2n(Cc2cn(C)c3cc(C)cc(C)c23)c1=O | 9.09 |
| COCCOc1nc(-c2ccc(Cl)nc2)nc2c1CN(C(=O)c1ncn3ccccc13)CC2 | 2 |
| Nc1nc(NCc2ccccc2)nc(-c2cccc(CO)c2)n1 | 12.8 |
| CN([C@@H]1CCc2c(CC(=O)O)c3ccccc3n2C1)S(=O)(=O)c1ccc(F)cc1 | 24.4 |
| Cc1c(NC(=O)c2cc(C(N)=O)nc3cc(F)ccc23)c(C(F)(F)F)nn1Cc1ccc(C#N)cc1 | -4.15 |
| NC(=O)c1ccc2nc(-c3ccc(C4(N)CCC4)cc3)c(-c3ccccc3)n2n1 | 12.4 |
| COc1cc(C(=O)O)ncc1C#Cc1ccccc1NS(=O)(=O)c1cccc2c(N(C)C)ccnc12 | -5.83 |
| Cc1noc([C@H]2C[C@@H](c3ccc(C(F)(F)F)cc3)CN(C(=O)N3CCS(=O)(=O)C3)C2)n1 | -0.58 |
| Nc1cnc(N2CCc3cc(S(=O)(=O)Nc4c(F)cc(Cl)cc4F)cc(N4CCCC4=O)c32)nc1 | 9.99 |
| CN1CCN(c2cnc3c(C4CCN(C(=O)c5ccc(OC(F)(F)F)cc5N)CC4)ncnc3c2)CC1 | -13.1 |
| Cc1cc(Nc2nccc(C)n2)cc(-c2cnc([C@@]3(O)CC[C@H](C(=O)O)C(C)(C)C3)s2)c1 | 16.7 |
| CN(C)CC#Cc1ccc(OCCCc2sc(N3CCc4cccc(C(=O)Nc5nc6ccccc6s5)c4C3)nc2C(=O)O)c(F)c1 | -3.11 |
| CC1CCN(c2ccnc(NCc3cn(C)cn3)n2)CC1 | 20.6 |
| O=c1nc(-c2ccccn2)sc2ccccc12 | -12 |

Set 4
Target: Tyrosine-protein kinase SYK (SYK, Homo sapiens, UniProt P43405)
Read-out: enzyme activity
Mode: inhibitor
Tested at: 0.5 µM
Baseline: control
| Structure (SMILES) | remaining activity [%] |
| --- | --- |
| O=C1c2ccccc2-c2nc3nnnn3nc21 | 94.8 |
| c1cc(-c2cnn3cc(-c4ccc(OCCN5CCCCC5)cc4)cnc23)ccn1 | 87.5 |
| CC(C)n1cnc2c(Nc3cccc(Cl)c3)nc(NCCO)nc21 | 85.1 |
| C[C@@H](N)[C@H]1CC[C@H](C(=O)Nc2ccncc2)CC1 | 101 |
| FC(F)(F)c1ccc(/C=C/c2nc(COc3ccc(CCCCn4ccnn4)cc3)co2)cc1 | 97.4 |
| CNc1cc2c(Nc3cccc(Br)c3)ncnc2cn1 | 95.3 |
| O=C(O)/C=C/c1cc(Br)c(Br)c(Br)c1Br | 102 |
| CC(C)N(CCC(=O)c1ccc2ccccc2c1)Cc1ccccc1 | 101 |
| O=C(c1ccccc1)c1ccc(N2CCOCC2)cc1O | 96.6 |
| NC(=O)c1cccc(-c2cc(Nc3ccc(OC(F)(F)F)cc3)ncn2)c1 | 99.9 |
| Nc1nc(Nc2ccc(S(N)(=O)=O)cc2)nn1C(=S)Nc1c(F)cccc1F | 15.5 |
| N#CC(c1ccnc(NCCc2cccnc2)n1)c1nc2ccccc2s1 (stereo not drawn) | 92.4 |
| O=Nc1c(-c2c(O)[nH]c3ccccc23)[nH]c2ccccc12 | 58.5 |
| O=c1c(-c2ccc(F)cc2)c(-c2ccncc2)[nH]n1-c1ccc(Cl)cc1 | 98.9 |
| COc1cc2c(N3CCN(C(=O)Nc4ccc(OC(C)C)cc4)CC3)ncnc2cc1OCCCN1CCCCC1 | 102 |
| CCN(CC)CCCCN1c2ccccc2Oc2ccc(Cl)cc21 | 97.6 |
| CC(C)(C)c1nc2c3cc[nH]c(=O)c3c3cc(F)ccc3c2[nH]1 | 79 |
| O=C1NC(=O)/C(=C/c2ccc3c(c2)OC(F)(F)O3)S1 | 95.3 |
| Clc1ccc(Nc2nnc(Cc3ccncc3)c3ccccc23)cc1 | 114 |
| CCCCc1c(-c2ccc(O)cc2)[nH]c2nccnc12 | 53.5 |
| NC(=O)c1ccc(-c2nc(-c3ccc4c(c3)OCCO4)c(-c3ccccn3)[nH]2)cc1 | 99.9 |

Repeated from above (set 4):
| Structure (SMILES) | remaining activity [%] |
| --- | --- |
| N#CC(c1ccnc(NCCc2cccnc2)n1)c1nc2ccccc2s1 (stereo not drawn) | 92.4 |
| O=Nc1c(-c2c(O)[nH]c3ccccc23)[nH]c2ccccc12 | 58.5 |
| O=c1c(-c2ccc(F)cc2)c(-c2ccncc2)[nH]n1-c1ccc(Cl)cc1 | 98.9 |
| COc1cc2c(N3CCN(C(=O)Nc4ccc(OC(C)C)cc4)CC3)ncnc2cc1OCCCN1CCCCC1 | 102 |
| CCN(CC)CCCCN1c2ccccc2Oc2ccc(Cl)cc21 | 97.6 |
